Experimental data of several laboratories.
Numbered parts are unrelated; each lists some results of a single study.

Series 1
Target: RNA binding protein fox-1 homolog 2, RRM domain, GST-SBP tag (RBFOX2, Homo sapiens, UniProt O43251-10, residues 100-194)
Technique: RNA Bind-n-Seq
Molecule type: RNA
Matrix: in vitro
Tested at: 365 nM
Notes: natural RNA segment, single round, ends assumed
Baseline: no-protein control
Reading: higher = stronger binding
Residues (chain): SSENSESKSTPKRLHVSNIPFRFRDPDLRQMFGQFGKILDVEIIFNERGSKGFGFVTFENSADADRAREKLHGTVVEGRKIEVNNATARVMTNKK
Strand | RBNS enrichment (R)
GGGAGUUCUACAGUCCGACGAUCAUGGUGAGCCUAGCCCUGGGACAUCAGGAGACUGGGCUCUGGCUCUGUUCGGCCUUUGGGUGUGUGGUGGAUUCUCCCUGGGCCUCAGUGUGCCCAUCUGUAAAGGGGCAUGGAAUUCUCGGGUGCCAA | 0.418
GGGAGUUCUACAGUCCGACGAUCUGUCACUUUUUUAAGGCUUUCUGUCCAGACUUCAACACUGGUUUCUUUUCAGAGUUUCGAAGGAUUAAUGACUUCCUCAGCGCCCUUGCUGGCGGGCUGAGGGUGACAGUUGGAAUUCUCGGGUGCCAA | 0.365
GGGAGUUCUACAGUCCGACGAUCAAUGCUGGUCAUUUCCUUUGCAAAGGACAGUCUCUGAAUUAUACCUACAACCUGUUCUGGGACAGUAUCAAUACUGAUGAGCAACCUGGCACACAAACUAUGAGCAGACCUGGAAUUCUCGGGUGCCAA | 0.339
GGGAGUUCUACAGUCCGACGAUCCUUUUCUAUUUGCGUUCAAAACUGUGUGUUCUCUUUCUAUUCCUAUUUGAUAGUUUGAGUCAUGGUCUUAGAUAUUAGCUAUUUGUGAGAGGAAACUGGUUUGUAACAAUUGGAAUUCUCGGGUGCCAA | 0.431
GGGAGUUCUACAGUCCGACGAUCCUGUUACCAUUCAUUGUCUGUGCUGUUUCCCAUUGUGCCCAGCAGUAGCAACAACAAGAUCACAUGGGUGGGGACCCUAGGUCCGGUGGCCAGCUUAUGGCAGGAGCAAAUGGAAUUCUCGGGUGCCAA | 0.418
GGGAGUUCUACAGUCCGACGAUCUUCAUGGUGCUGUCCCGCCGGAGGAGGCCAUCCAUCCGUCCCUGGGAUGCAACAUGGGGUCCCAAUGCCUGAGGAGAAGACCCCCCCCCAAGGCUGACUCGCUUUCACCAUGGAAUUCUCGGGUGCCAA | 0.52
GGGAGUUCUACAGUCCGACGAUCCUGACUACGUGUAAUUGGGCAGAUCAGCUUUGCAGUAGAUUAUGCUGCAUCCUCGUGGCAAAAUUCUGUAUUCUUAGUGAUUGUUACAAACCCCUUUAUUGCUGUCUGAGUGGAAUUCUCGGGUGCCAA | 0.25
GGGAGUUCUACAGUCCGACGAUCGAGGCACCAGUGUCCUCCCCUCAAGGACAAAGUCUCCAGCCCACGUUCUCUCUGCCUGUGAGCCAGUCUAGUUCCUGAUGACCCAGGCUGCCUGAGCACCUCCCAGCCCCUGGAAUUCUCGGGUGCCAA | 0.346
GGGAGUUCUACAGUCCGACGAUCGCUCUCCAGAAUUACUUGUAGGUAAUUCCUCUCUUCAUGUUCUAAUAAACUUCUACAUUAUCACCAACAGCCUGAUUGCUGCUGAACACACUGGGUAAGUGUUUGCUGAGUGGAAUUCUCGGGUGCCAA | 0.706
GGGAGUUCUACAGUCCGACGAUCGGUUCUCAUACCAGCACAUCACUAUGCAUCCGUUCGAGGGAGAGAGAGACAAAGACAAAGACUGCCUGCCUUGGAGGGUCACUGAGGGAGACCUGUGCCUGAUUUCAUUAUGGAAUUCUCGGGUGCCAA | 13.2
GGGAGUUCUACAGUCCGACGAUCAAGGAAUGAACAGUAGAAUUUUAAUAGGCUGUCCAAAGAAGCCAGGUCUGCUGUGGGCAAGUAUAGCCUAACCCUAGUCUUGUAAAAUAAGCCAGAAAGGGUUACUGAGCUGGAAUUCUCGGGUGCCAA | 0.461
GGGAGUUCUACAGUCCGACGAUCAACGUCAGUGGAGUAAAUAUUCGACAGGCCAUAACUUGAGUCUAUUGCCUUGCCUUUAUUACAUGUACAUUUUGAAUUCUGUGACCAGUGAUUUGGGUUUUAUUUUGUAUUGGAAUUCUCGGGUGCCAA | 0.638

Series 2
Target: Prothrombin, mature alpha-thrombin (F2, Homo sapiens, UniProt P00734)
Technique: aptamer microarray, sandwich
Molecule type: DNA with 2'F-ANA
Matrix: in vitro
Tested at: 200 nM
Notes: whole 15-mer aptamer, many near background
Together with: Cy3 exosite-II aptamer, 400 nM
Reading: higher = stronger binding
Strand: GGTTGGTGTGGTTGG
Modification | mean fluorescence intensity [a.u.]
2'F-ANA at 1 2 3 5 6 7 9 10 14 | 248
2'F-ANA at 1 2 3 4 5 6 7 11 12 15 | 80.6
2'F-ANA at 1 6 9 10 12 14 15 | 51.2
2'F-ANA at 1 5 8 11 13 14 15 | 110
2'F-ANA at 3 6 9 11 12 14 15 | 516
2'F-ANA at 5 6 8 9 11 12 13 | 89.4
2'F-ANA at 2 3 4 8 10 11 12 | 267
2'F-ANA at 1 2 4 5 6 8 9 10 11 12 13 14 | 50.8
2'F-ANA at 1 2 3 4 5 6 7 8 9 11 12 13 14 | 79.4
2'F-ANA at 1 2 6 7 | 164
2'F-ANA at 1 3 4 5 9 12 13 14 | 69.1
2'F-ANA at 1 4 7 11 13 14 | 49.7
2'F-ANA at 1 2 3 4 5 6 7 10 11 12 13 14 15 | 71.5
2'F-ANA at 1 2 5 6 7 8 9 11 12 13 15 | 84.9
2'F-ANA at 4 9 11 13 | 169
2'F-ANA at 4 5 7 8 9 10 11 14 | 43.5
2'F-ANA at 1 2 3 7 8 9 11 15 | 251
2'F-ANA at 1 3 4 6 7 8 12 | 420
2'F-ANA at 1 3 4 7 9 10 14 | 51.5
2'F-ANA at 3 4 5 7 8 10 11 | 55.5

Series 3
Target: Ras GTPase-activating protein-binding protein 1, full length (G3BP1, Homo sapiens, UniProt Q13283)
Sequence of UniProt Q13283 (whole entry, looked up): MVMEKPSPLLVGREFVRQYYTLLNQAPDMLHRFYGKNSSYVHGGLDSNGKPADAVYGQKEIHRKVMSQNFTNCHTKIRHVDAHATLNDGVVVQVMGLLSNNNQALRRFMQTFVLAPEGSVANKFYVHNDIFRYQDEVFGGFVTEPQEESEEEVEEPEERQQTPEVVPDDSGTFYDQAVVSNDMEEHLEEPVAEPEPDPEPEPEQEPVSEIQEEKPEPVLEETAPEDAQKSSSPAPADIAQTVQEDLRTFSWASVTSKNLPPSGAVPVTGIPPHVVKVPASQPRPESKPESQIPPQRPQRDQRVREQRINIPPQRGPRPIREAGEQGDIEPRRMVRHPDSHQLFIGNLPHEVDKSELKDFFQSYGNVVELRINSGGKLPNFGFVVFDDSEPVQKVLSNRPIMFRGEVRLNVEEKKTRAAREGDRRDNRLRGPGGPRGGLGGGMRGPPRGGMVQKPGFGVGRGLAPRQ
Technique: RNA Bind-n-Seq
Molecule type: RNA
Matrix: in vitro
Tested at: 200 nM
Notes: whole 134-nt RNA, ends assumed
Together with: 150 mM KCl
Baseline: input library
Reading: higher = stronger binding
Strand | log2 enrichment
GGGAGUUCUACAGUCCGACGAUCGUCCUGUGCUACACAUCGUAUGUACCGAAUCGGGCCCCCGGGCCCCCGGGCCCCCGGGGAAAGUAUUAUGUUACGCCGUUCGGAUCUGCAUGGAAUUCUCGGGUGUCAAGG | -0.884
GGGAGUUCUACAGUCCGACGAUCUAACUUUAGAGGAGGAUCUGAUGUAUAUGGCAGUGGACGUGGAUUUGGGGAUGGCUAUAAUGGGUAUGGAGGAGGACCUGGAGGUGGCAAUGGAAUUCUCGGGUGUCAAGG | 0.232
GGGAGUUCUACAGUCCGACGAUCUCCUCAAGUCCUGUGCUACACAUCGUAUGUACCGAAUCGGGCGGGCGGCGGAAAGUAUUAUGUUACGCCGUUCGGAUCUGCACUUCCAGCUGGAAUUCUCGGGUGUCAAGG | -0.544
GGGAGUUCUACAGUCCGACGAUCCACAGACAACACGCACCCACACAGACACAGAGGGAAGGGGUUGGGAUGGGGACAGCGUGCACAGCAGGGCGGGGUAGGACCCCAGCCCCUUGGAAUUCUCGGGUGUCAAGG | 1.74
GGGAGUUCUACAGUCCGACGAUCACCAUGCAGGUGGGCAUCUUUGGAAAGUGGGGCAAGGGGGGGAUAGGGAGGGGGGUAACACUUUGGGAACAGGUGGUCCCAGGUCGUUUCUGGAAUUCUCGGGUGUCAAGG | 0.877
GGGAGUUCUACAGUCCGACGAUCAGUCCUGUGCUACACAUCGUAUGUACCGAAUCGGGAAAAAGGGUGGGAAAAAAAGGGAAAGUAUUAUGUUACGCCGUUCGGAUCUGCACUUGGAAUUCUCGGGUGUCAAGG | -0.219
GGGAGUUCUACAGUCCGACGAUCAAGUCCUGUGCUACACAUCGUAUGUACCGAAUCGGGUUUUUGGGUUUGGGAAAGGGAAAGUAUUAUGUUACGCCGUUCGGAUCUGCACUUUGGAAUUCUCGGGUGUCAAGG | 0.0282
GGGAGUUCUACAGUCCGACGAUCACCAUGCAGGUGGGCAUCUUUGGGAUGUGGGGCAAGGGGGGGAUAGGGAGGGGGGUAACACUUUGGGAACAGGUGGUCCCAGGUCGUUUCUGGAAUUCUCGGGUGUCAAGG | 1.09
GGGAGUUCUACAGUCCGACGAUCUCCUCAAGUCCUGUGCUACACAUCGUAUGUACCGAAUCGGUGGUGGUUUGGAAAGUAUUAUGUUACGCCGUUCGGAUCUGCACUUCCAGCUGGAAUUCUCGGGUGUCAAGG | -0.517
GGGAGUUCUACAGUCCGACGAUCCCUGUGCUACACAUCGUAUGUACCGAAUCGGGAAAAAAGGAAAAAAGGGGAAAAAAGGGGAAAGUAUUAUGUUACGCCGUUCGGAUCUGCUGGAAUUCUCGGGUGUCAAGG | -0.582

Series 4
Target: Interferon regulatory factor 7, full length, phosphomimetic (IRF7, Homo sapiens, UniProt Q92985, residues 1-503, S471D/S472D/S475D/S476D/S477D/S483D/S484D/S487D)
Sequence of UniProt Q92985 (whole entry, unmodified, looked up): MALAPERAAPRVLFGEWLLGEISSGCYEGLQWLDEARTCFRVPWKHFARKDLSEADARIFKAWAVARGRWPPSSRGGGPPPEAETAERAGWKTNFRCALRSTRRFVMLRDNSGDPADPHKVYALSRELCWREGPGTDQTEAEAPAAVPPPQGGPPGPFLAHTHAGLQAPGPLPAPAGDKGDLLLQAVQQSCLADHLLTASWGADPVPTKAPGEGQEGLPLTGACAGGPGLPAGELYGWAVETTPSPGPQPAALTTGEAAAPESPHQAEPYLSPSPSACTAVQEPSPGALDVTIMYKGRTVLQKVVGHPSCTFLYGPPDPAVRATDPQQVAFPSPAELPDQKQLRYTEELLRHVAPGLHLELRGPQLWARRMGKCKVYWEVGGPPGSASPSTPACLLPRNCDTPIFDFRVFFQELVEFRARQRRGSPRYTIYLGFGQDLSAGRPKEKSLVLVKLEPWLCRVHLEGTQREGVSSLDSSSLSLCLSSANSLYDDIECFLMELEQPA
Technique: protein-binding microarray
Molecule type: double-stranded DNA, one strand shown
Matrix: in vitro
Tested at: 2200 nM top
Notes: 60-bp whole probe
Together with: salmon DNA 0.4 mg/ml
Baseline: random background probes
Reading: higher = stronger binding
Constant ends, left off below: GCCTAGCAC … GTCTTGATTCGCTTGACGCTGCTG
Strand | fitted relative affinity
GACGATATCGGGATTGGAGACGTGCTA | -0.0652 z-score
TCTCTGCTCCTTCTGACATCGTGCTAG | 1.77 z-score
TAAGGACTGCTTATCCTTTAGTGCTAG | 0.254 z-score
TTAGGTTTCTGGACTGGGTTAGTGCTA | 0.799 z-score
GTAGAACTGGGGTTTCGATTAGTGCTA | 2.21 z-score
TTAGATATCGACTATCGGTTAGTGCTA | 0.395 z-score
TTAGGTTTCTTACTGCTTTAGTGCTAG | 1 z-score
AGTGTCTCCATCAGAGGAGAGTGCTAG | -0.364 z-score
ATGCATGTGCTGTCTCAGAGTGTGCTA | 1.02 z-score
CCCGTTCACCCACGACCCTTGTGCTAG | 2.33 z-score
GACTGTTTCGGGACTGGGGACGTGCTA | 2.47 z-score
CAGAATCCCCTTCTACTCTCGTGCTAG | 1.05 z-score
GAGGCTTTTTTTTTTTTTTTGTGCTAG | 0.0578 z-score
TGTGGGTTTCGGTGTGGGAGGTGCTAG | 2.39 z-score
GACGGTATCGACTATGGGGACGTGCTA | -0.365 z-score
GACGGTATCTACACTGGGGACGTGCTA | -0.115 z-score
TTAGGTTTCCCTATCCTTTAGTGCTAG | 1.98 z-score
GATGATCTCAGTATCGAGACGTGCTAG | 0.208 z-score

For quick reference, copied from above (series 4):
Strand | fitted relative affinity
TTAGGTTTCTTACTGCTTTAGTGCTAG | 1 z-score
AGTGTCTCCATCAGAGGAGAGTGCTAG | -0.364 z-score
ATGCATGTGCTGTCTCAGAGTGTGCTA | 1.02 z-score
CCCGTTCACCCACGACCCTTGTGCTAG | 2.33 z-score
GACTGTTTCGGGACTGGGGACGTGCTA | 2.47 z-score
CAGAATCCCCTTCTACTCTCGTGCTAG | 1.05 z-score
GAGGCTTTTTTTTTTTTTTTGTGCTAG | 0.0578 z-score
TGTGGGTTTCGGTGTGGGAGGTGCTAG | 2.39 z-score
GACGGTATCGACTATGGGGACGTGCTA | -0.365 z-score
GACGGTATCTACACTGGGGACGTGCTA | -0.115 z-score
